# Experimental data pooled from the literature.
# Every numbered part comes from another study and shows a few of its results, in no order. Positions count from the first letter of the parent shown.

# Series 1 — method: DHFR PCA, deep sequencing; matrix: yeast; added: (+)-ABA 0 µM; baseline: wild-type fitted maximum; direction: higher = stronger binding
# Target: ABI1, truncated, D143A, DHFR fusion (Arabidopsis thaliana)
# Notes: methotrexate growth selection, single substitutions
# Parent: PYL1, truncated, DHFR fusion (Arabidopsis thaliana); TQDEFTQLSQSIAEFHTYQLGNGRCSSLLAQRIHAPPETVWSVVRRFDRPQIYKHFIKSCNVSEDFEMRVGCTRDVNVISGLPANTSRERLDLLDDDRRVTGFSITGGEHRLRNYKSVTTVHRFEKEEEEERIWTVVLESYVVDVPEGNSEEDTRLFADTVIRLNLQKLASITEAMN; partner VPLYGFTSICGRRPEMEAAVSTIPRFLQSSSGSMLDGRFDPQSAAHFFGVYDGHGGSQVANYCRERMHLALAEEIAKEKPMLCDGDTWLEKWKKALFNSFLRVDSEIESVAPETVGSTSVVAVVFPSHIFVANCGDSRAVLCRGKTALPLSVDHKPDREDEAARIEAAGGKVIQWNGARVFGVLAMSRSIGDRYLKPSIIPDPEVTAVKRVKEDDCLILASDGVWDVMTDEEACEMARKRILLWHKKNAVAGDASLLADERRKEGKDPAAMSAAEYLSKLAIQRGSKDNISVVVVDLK
Variant,relative binding score [%]
L29D,3.19
T6D,29.5
E14N,7.38
T135K,-4.88
H110G,25.2
N22Y,20.2
Q19A,29.9
L169G,-3.41
D144L,-9.89
S11V,33.6
I33L,-2.15
F5Y,31.1
R155M,6.86
G23P,-2.91

# Series 2 — method: RNA Bind-n-Seq; molecule type: RNA; matrix: in vitro; tested at: 365 nM; baseline: no-protein control; direction: higher = stronger binding
# Target: RNA binding protein fox-1 homolog 2, RRM domain, GST-SBP tag (RBFOX2, Homo sapiens, UniProt O43251-10, residues 100-194)
# Notes: natural RNA segment, single round, ends assumed
Sequence,RBNS enrichment (R)
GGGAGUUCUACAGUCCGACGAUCGUUUCUGCCUGCCUGAAAGAGAGGGCUCUGGGGAUGGAGAUGAGAAACAACACGCUCUCCUUCAGACAAUGAGGCAUUCUGUCCUCCUGCUGCCAUUCUUCAUCUCCACUUGGAAUUCUCGGGUGCCAA,0.631
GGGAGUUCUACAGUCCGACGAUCUGAUGAAGAGAGAGAGGGCCUGCUGGAGAGCAUAGGGUCUGGAACACCAGGCUGAGGUCCUGAUCAGCUUCAAGGAGUAUGCAGGGAGCUGGGCUUCCAGAAAAUGAACAUGGAAUUCUCGGGUGCCAA,0.648
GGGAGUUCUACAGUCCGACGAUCUGGCUUUCUUUUUGACUGUGCUUGGGAGCAAAGUCAGAUGGGCAGCUGGGUGUGUGUUUAGAGCUCUACGAAUUGUCAAUAACACAUGCUUCUCUGUCCCAGGGGUCCUAUGGAAUUCUCGGGUGCCAA,0.4
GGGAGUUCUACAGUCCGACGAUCUUAGCCCCAGGCCUGGGCAGGGAUUUGGCCUUCCAGUGGAGUUUCCUGUACCCUGGUGUAGCUUUUGUGUUGAAGACACUCUUGGGUGUGCACCCUAUUCAGGUCAGGGAUGGAAUUCUCGGGUGCCAA,0.432
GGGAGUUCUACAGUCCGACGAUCGUUUAUGACAAUAUUGAUAAGCGGCCUCGACUAGACUUGGCUCCGGCUCUUUCCUAGGCCGCACAAGCUUCUGCAGCAAUCUCAGAGACUGAAACAGCUGAGAGCCUAUUUGGAAUUCUCGGGUGCCAA,0.372
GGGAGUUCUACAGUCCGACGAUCUGUCUUGGCAGGGCUGUCCCCUCUUGCUUCUCCUUGCAUGAGCUGGAGGGCCUGUGUGAGUUACGCCCCUUUCCACACGCCGCUGCCCCAGCAACCCUGUUCACGCUCCAUGGAAUUCUCGGGUGCCAA,3.03
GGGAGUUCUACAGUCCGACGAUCGUAACGUAGGUGUAGAUUCCCAAAUGCAUUUGGAUGUACAGAUCGACUACAGAGUACUUUUUUCUUAUGAUGAUUGGUGUAGAAAUGUGUGAUUUGGGUGGGCUUUUACAUGGAAUUCUCGGGUGCCAA,2.08
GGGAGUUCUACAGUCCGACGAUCAAAGCACGGCUUACUUCAUCUGCUCCUUACACACUAAAAUGCUCUUAGUGUGCUCAACUACAGAGAUAGCCGCUGCUGAGUGAUGUAGAUUUUCUACUUGAAUAUUUUUAUGGAAUUCUCGGGUGCCAA,0.609

# Series 3 — method: protein binding microarray; molecule type: double-stranded DNA, one strand shown; matrix: in vitro; tested at: not given; baseline: not given; direction: higher = stronger binding
# Target: Histone acetyltransferase KAT6A, both winged helices, GST fusion (KAT6A, Homo sapiens, UniProt Q92794, residues 1-181)
# Notes: 8-mer, flanks averaged, mean of 2 arrays, mostly near background
# Construct (chain): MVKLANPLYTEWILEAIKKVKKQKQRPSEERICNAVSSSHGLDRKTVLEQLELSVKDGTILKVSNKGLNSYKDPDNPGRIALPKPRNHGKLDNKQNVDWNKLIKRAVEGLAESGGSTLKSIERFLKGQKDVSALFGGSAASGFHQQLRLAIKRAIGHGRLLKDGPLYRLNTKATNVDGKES
Sequence,E-score
GCCTGAAA,0.0195
GCTTGTTA,0.0475
ACTGATGG,-0.0635
CGAACTTC,-0.0249
AAAAACTT,-0.105
CCTTTTCC,-0.0951
TCCTTCAA,-0.152
CGTTAAGA,-0.0219
TCGGCGAA,0.239
AGGAGTTA,-0.192
GCTGTAGA,0.0301
GCAGTGTA,0.0248
ATCCGTTG,0.157
CGCTGATA,0.124
TCAAAGCA,-0.169
CCTTGAAC,-0.0183
AAGGCTCG,-0.101
AGCGGCCG,0.39
CATGGAGG,-0.12
CTGTCCCA,-0.0997
ACAGTCTG,-0.25
CGATAACG,0.0449
AACTTCCA,-0.169
CTCAGTTA,0.0256

# Series 4 — target: CCNB3, cyclin fold, Cln2 fusion (human); method: yeast growth competition, sequencing; matrix: yeast; notes: weak parent motif; baseline: not given; direction: higher = stronger binding
# Parent: RBL1 docking peptide (human); GSAKRRLFGEDPP
Variant,normalised enrichment score
MSAKRRLFGEDPP [G1M],0.309
GSAKARAFGEDPP [R5A L7A],0.1
GSAGRRLFGEDPP [K4G],0.339
GSAKRCLFGEDPP [R6C],0.274
GSAKRDLFGEDPP [R6D],-0.0675
GSAKRRLFGEDPN [P13N],0.527
GSAKRRLFGEDPY [P13Y],-0.0551
GSAKRRLFGEDGP [P12G],0.418
GSASRRLFGEDPP [K4S],0.431
GSFKRRLFGEDPP [A3F],0.425
GSAKRRNFGEDPP [L7N],-0.246
GSAKRRLFGEDVP [P12V],0.566
GSYKRRLFGEDPP [A3Y],0.365
GSAKRRLFGEIPP [D11I],0.556
GSAKRRLFGEDEP [P12E],1.21
GSALRRLFGEDPP [K4L],-0.104
GSPKRRLFGEDPP [A3P],0.769
